Measured values from different studies.
Numbered parts are unrelated; each lists some results of a single study. Substitutions count along the parent as printed.

Block 1
Target: PABPC1L2, full length, GST fusion (mouse, UniProt A0ABA7IW68)
Method: RNAcompete
Form: RNA
Medium: in vitro
Tested at: 20 nM
Setting: 7-mer, probes averaged, single round
Reference: mean of 7-mers
Reading: higher = stronger binding
Endpoint: 7-mer Z-score
Construct (chain): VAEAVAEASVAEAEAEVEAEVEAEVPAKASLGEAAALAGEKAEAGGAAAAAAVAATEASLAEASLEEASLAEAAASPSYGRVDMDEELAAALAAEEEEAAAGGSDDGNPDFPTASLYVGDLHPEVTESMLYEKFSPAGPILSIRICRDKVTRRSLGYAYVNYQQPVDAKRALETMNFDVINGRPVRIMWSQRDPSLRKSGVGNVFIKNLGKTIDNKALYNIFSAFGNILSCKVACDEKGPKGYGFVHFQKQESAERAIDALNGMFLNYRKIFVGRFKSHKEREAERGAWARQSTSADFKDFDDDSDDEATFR
AAGUAAU: 0.0587
GCAGCCU: -0.262
CUUAACU: -0.215
AGUUCAA: -0.188
GCAAAUU: 0.142

Block 2
Target: Histone acetyltransferase KAT6A, winged helix 2, GST fusion (KAT6A, Homo sapiens, UniProt Q92794, residues 85-181)
Method: protein binding microarray
Form: double-stranded DNA, one strand shown
Medium: in vitro
Tested at: not given
Setting: 8-mer, flanks averaged, mean of 2 arrays, mostly near background
Reference: not given
Reading: higher = stronger binding
Endpoint: E-score
Residues (chain): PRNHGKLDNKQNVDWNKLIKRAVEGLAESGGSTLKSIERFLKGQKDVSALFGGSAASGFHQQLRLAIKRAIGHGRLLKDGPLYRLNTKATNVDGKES
GAACTTCA: -0.00726
AACTTTGA: 0.0485
CACTTCAA: -0.0114
AAACGGTC: -0.114
CTTAAGCC: 0.0212
GCGACGCC: 0.193
AGGCCACA: -0.0886

Block 3
Target: CCNF, cyclin fold, Cln2 fusion (human)
Method: yeast growth competition, sequencing
Medium: yeast
Setting: strong parent motif
Reference: not given
Reading: higher = stronger binding
Endpoint: normalised enrichment score
Starting sequence: E2F1 docking peptide (human); PPVKRRLDLETDH
PPVKRRLDLETDG [H13G]: 6.85
PPVKCRLDLETDH [R5C]: 0.247
PPVKRRQDLETDH [L7Q]: 1.04
PPVIRRLDLETDH [K4I]: 4.86
MPVKRRLDLETDH [P1M]: 7.68

Mixed results
PhoQ, residues 284 288 289 292 302 303 SSCCRF  fold induction (PhoP, residues 12 14 15 18 19 AQALL (Escherichia coli, UniProt P23836); Sort-seq, refers to: YFP reporter; E. coli; PhoQ-PhoP variant library, with: 10 µM Mg2+; reference: high Mg2+ state, higher = stronger signaling): 10

Repeated from above (block 2):
AACTTTGA: 0.0485
CACTTCAA: -0.0114
